Measurements collected from several papers.
± gives the spread as reported.
YES1: Tyrosine-protein kinase Yes (YES1, Homo sapiens, UniProt P07947)
Sequence of UniProt P07947 (whole entry, unmodified, looked up): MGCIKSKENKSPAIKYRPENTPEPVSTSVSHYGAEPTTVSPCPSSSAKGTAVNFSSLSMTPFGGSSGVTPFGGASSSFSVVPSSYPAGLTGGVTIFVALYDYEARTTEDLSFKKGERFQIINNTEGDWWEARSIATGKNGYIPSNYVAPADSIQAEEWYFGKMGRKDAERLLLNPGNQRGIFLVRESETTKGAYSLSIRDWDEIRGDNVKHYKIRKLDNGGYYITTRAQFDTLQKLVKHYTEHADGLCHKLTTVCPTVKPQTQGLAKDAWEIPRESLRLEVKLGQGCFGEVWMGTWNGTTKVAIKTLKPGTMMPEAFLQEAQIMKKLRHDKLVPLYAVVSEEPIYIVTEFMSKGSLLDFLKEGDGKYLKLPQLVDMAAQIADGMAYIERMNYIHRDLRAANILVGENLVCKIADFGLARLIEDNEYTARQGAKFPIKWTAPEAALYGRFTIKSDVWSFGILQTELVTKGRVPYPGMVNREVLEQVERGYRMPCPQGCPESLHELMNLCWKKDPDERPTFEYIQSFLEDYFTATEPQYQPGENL

Compound | target | test | conditions | how to read | measurement | result
COc1cc(-c2cncc3c2CN(C)Cc2cc(N4CCNCC4)ccc2-3)cc(OC)c1OC | YES1 | kinase activity | 1 µM, human enzyme, together with: ATP 10 µM | relative to: DMSO control | remaining activity | 64%
C=CC(=O)N1CCC[C@@H](n2nc(-c3ccc(Oc4ccccc4)cc3)c3c(N)ncnc32)C1 | YES1 | kinase activity, inhibitor, HotSpot radiometric | 100 nM, together with: ATP 10 µM |  | remaining activity | 6.6 ± 0.9%
C=CC(=O)N1CCC[C@@H](n2nc(-c3ccc(Oc4ccccc4)cc3)c3c(N)ncnc32)C1 | YES1 |  | 0.1 µM |  | remaining activity | 99.3%
[2H]c1cc(C)c(NC(=O)c2cnc(Nc3cc(N4CCCCC4)nc(C)n3)s2)c(Cl)c1 | Tyrosine-protein kinase Yes (YES1, Homo sapiens, UniProt P07947, T348I) |  | 0.01 µM |  | inhibition | < 30%
COc1ccc(F)cc1C(=O)NCc1ccc(-c2nn([C@@H](C)C(F)(F)F)c(N)c2C(N)=O)cc1 | YES1 | kinase activity, inhibitor, HotSpot radiometric | 100 nM, together with: ATP 10 µM |  | remaining activity | 47.6 ± 0.2%
Cc1nc(Nc2ncc(C(=O)Nc3c(C)cccc3Cl)s2)cc(N2CC[C@H](O)C2)n1 | YES1 |  | 0.001 µM |  | inhibition | 100%
Cc1cc(Nc2cc(N3CCN(C)CC3)nc(Sc3ccc(NC(=O)C4CC4)cc3)n2)[nH]n1 | YES1 | kinase activity, KinaseProfiler | 0.03 µM, species human | relative to: control | remaining activity | 62%
CC#CC(=O)N1CCC[C@H]1c1nc(-c2ccc(C(=O)Nc3ccccn3)cc2)c2c(N)nccn12 | YES1 | kinase activity, inhibitor, HotSpot radiometric | 100 nM, together with: ATP 10 µM |  | remaining activity | 88.55 ± 0.5%
O=C1NC(=O)/C(=C/c2ccc(-c3ccc(F)cc3O)o2)S1 | YES1 | enzyme activity | 10 µM |  | remaining activity | 36%

Repeated from above:
Compound | target | test | conditions | how to read | measurement | result
C=CC(=O)N1CCC[C@@H](n2nc(-c3ccc(Oc4ccccc4)cc3)c3c(N)ncnc32)C1 | YES1 | kinase activity, inhibitor, HotSpot radiometric | 100 nM, together with: ATP 10 µM |  | remaining activity | 6.6 ± 0.9%
